Measured values from different studies.
Every numbered part comes from another study and shows a few of its results, in no order. Substitutions count along the parent as printed.

Sample 1 — method: DHFR PCA, deep sequencing; matrix: yeast; added: (+)-ABA 4.8 µM; reference: wild-type fitted maximum; reading: higher = stronger binding
Target: ABI1, truncated, D143A, DHFR fusion (Arabidopsis thaliana)
Setting: methotrexate growth selection, single substitutions
Starting sequence: PYL1, truncated, DHFR fusion (Arabidopsis thaliana); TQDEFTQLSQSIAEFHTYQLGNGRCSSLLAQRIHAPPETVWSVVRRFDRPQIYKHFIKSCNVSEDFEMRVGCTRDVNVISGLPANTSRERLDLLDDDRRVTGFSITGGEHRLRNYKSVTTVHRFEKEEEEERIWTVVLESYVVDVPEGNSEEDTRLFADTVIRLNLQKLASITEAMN
`D144M` — result for “relative binding score”: -4.83%.
For `I162W`, “relative binding score” read -4.31%.
Under “relative binding score”, `L166S` is recorded as -10%.
Under “relative binding score”, `E151G` is recorded as 47.8%.
`R123L`: “relative binding score” 53.6%.
Under “relative binding score”, `F47C` is recorded as 1.83%.
For `S42L`, “relative binding score” read 28%.
Under “relative binding score”, `G23F` is recorded as 20.4%.
For `Y141N`, “relative binding score” read 2.89%.
`D144Y`: “relative binding score” 0.768%.
`R88S` — result for “relative binding score”: 60%.
For `S42N`, “relative binding score” read 67.5%.
For `S140Q`, “relative binding score” read -15.4%.
`L82W` — result for “relative binding score”: 26.6%.
`D97W` — result for “relative binding score”: 17.1%.

Sample 2 — target: CCNA1, cyclin fold, Cln2 fusion (human); method: yeast growth competition, sequencing; matrix: yeast; setting: weak parent motif; reference: not given; reading: higher = stronger binding
Starting sequence: PKN2 docking peptide (human); VSAVQKLDFSDTM; partner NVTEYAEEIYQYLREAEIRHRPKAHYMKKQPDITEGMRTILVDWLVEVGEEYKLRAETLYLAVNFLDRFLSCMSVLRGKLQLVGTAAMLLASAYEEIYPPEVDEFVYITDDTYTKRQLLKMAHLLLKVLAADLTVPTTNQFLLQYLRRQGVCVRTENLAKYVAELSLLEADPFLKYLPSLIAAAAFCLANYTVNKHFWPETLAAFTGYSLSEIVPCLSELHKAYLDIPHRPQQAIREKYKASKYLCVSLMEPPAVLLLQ
For `A3I`, “normalised enrichment score” read 0.163.
`V1H`: “normalised enrichment score” 0.14.
`T12P` — result for “normalised enrichment score”: 0.536.
`D8T` — result for “normalised enrichment score”: -0.0394.
For `F9R`, “normalised enrichment score” read 0.674.
`S2R`: “normalised enrichment score” 0.359.
`K6M` — result for “normalised enrichment score”: 0.386.
`L7C` — result for “normalised enrichment score”: 0.239.
`V4S`: “normalised enrichment score” -0.203.
`D8N` — result for “normalised enrichment score”: -0.0194.
`S10A`: “normalised enrichment score” 0.232.
For `A3H`, “normalised enrichment score” read 0.406.
`Q5R`: “normalised enrichment score” 0.815.
For `K6R`, “normalised enrichment score” read 0.115.
`K6H` — result for “normalised enrichment score”: 0.109.
Under “normalised enrichment score”, `F9I` is recorded as 0.187.
Under “normalised enrichment score”, `V4C` is recorded as -0.0817.
`D11Q` — result for “normalised enrichment score”: -0.00721.

Sample 3 — method: protein binding microarray; form: double-stranded DNA, one strand shown; matrix: in vitro; tested at: not given; reference: not given; reading: higher = stronger binding
Target: Histone acetyltransferase KAT6A, winged helix 2, GST fusion (KAT6A, Homo sapiens, UniProt Q92794, residues 85-181)
Setting: 8-mer, flanks averaged, mean of 2 arrays, mostly near background
Target sequence (chain): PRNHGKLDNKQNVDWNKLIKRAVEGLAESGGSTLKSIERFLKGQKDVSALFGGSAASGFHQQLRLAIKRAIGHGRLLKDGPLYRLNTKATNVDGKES
`GCTACCGA` has an E-score of 0.146.
`ATTACACG` gave an E-score of -0.0231.
`GTAGAGGA` gave an E-score of -0.169.
For `CTGGTTAC`, the E-score was -0.175.
For `CGTCTAGC`, the E-score was 0.115.
`CCATTTGC` has an E-score of -0.0765.
With `CGCCAAAA` the E-score was 0.157.
`ATCGGCCC` gave an E-score of 0.0532.
For `CAAGATGG`, the E-score was -0.145.
`TATCCATA` has an E-score of 0.0247.
The E-score of `AGCCGGGC` is reported as 0.0974.
For `AAGCTATC`, the E-score was -0.00722.
`CGTACCAG` has an E-score of 0.0312.
The E-score of `CCTTGGCC` is reported as -0.0789.
For `CGTGTATC`, the E-score was -0.00954.
The E-score of `AGATGCGC` is reported as 0.138.
`GAGGATGC` has an E-score of -0.0329.
The E-score of `TCTGTCAA` is reported as -0.0355.

Mixed results
For `PhoQ, residues 284 288 289 292 302 303 SSTMSV`, the fold induction was 16 (PhoP, residues 12 14 15 18 19 IQSYL (Escherichia coli, UniProt P23836); Sort-seq, refers to: YFP reporter; E. coli; PhoQ-PhoP variant library, added: 10 µM Mg2+; reference: high Mg2+ state, higher = stronger signaling).

Some of these lines once more (sample 2):
`K6H` — result for “normalised enrichment score”: 0.109.
For `F9R`, “normalised enrichment score” read 0.674.
Under “normalised enrichment score”, `F9I` is recorded as 0.187.
For `K6R`, “normalised enrichment score” read 0.115.
`D11Q` — result for “normalised enrichment score”: -0.00721.
`K6M` — result for “normalised enrichment score”: 0.386.
`D8N` — result for “normalised enrichment score”: -0.0194.
